Results gathered from unrelated publications.
A part holds a random share of what one study measured. Changes are numbered by the printed parent chain.
Sequence of UniProt P54753 (whole entry, looked up): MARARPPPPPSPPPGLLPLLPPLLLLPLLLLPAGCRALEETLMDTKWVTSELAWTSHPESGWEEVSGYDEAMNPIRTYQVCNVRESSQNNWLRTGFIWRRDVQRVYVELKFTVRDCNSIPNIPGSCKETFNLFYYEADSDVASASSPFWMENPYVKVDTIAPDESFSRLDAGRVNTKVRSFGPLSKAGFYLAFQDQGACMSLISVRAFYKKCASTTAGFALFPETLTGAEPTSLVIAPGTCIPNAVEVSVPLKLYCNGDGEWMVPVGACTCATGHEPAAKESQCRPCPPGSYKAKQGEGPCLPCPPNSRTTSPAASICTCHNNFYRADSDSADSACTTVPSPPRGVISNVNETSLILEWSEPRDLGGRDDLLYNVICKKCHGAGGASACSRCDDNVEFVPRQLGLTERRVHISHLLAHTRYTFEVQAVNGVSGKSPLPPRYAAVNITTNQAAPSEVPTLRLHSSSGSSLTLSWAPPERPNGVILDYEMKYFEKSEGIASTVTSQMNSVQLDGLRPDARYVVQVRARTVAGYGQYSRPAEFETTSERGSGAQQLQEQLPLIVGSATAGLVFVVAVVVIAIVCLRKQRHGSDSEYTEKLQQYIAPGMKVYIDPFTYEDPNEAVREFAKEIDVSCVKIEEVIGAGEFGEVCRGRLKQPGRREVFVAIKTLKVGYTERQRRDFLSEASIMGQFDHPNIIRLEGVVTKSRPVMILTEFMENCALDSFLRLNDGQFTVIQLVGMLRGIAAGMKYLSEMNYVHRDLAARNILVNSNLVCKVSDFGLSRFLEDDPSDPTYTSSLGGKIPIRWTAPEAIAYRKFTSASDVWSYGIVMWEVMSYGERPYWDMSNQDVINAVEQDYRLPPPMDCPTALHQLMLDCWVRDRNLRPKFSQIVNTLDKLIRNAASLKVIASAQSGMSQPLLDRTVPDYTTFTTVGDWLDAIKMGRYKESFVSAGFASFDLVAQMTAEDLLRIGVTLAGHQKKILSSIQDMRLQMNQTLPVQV

Block 1 — effect on: peptide-MHC binding; form: peptide; concentration: concentration not given; endpoint: binding
Target: HLA class I histocompatibility antigen, C alpha chain, allele C*04:01 (Homo sapiens, UniProt P10321)
YIISTHYQF: inactive
FAYKTGSSM: inactive
SVDSDHLGY: inactive
SSDDFALIV: inactive
YTYDLAEYR: inactive
KAMRPWQSF: inactive
SYMSTFPLF: active
SERFINYAI: inactive

Block 2 — effect on: cell-free assay; technique: competition with immobilised ligand; concentration: 1 µM; endpoint: remaining binding
Target: Serine/threonine-protein kinase PknB (pknB, Mycobacterium tuberculosis, UniProt P9WI81)
Sequence of UniProt P9WI81 (whole entry, looked up): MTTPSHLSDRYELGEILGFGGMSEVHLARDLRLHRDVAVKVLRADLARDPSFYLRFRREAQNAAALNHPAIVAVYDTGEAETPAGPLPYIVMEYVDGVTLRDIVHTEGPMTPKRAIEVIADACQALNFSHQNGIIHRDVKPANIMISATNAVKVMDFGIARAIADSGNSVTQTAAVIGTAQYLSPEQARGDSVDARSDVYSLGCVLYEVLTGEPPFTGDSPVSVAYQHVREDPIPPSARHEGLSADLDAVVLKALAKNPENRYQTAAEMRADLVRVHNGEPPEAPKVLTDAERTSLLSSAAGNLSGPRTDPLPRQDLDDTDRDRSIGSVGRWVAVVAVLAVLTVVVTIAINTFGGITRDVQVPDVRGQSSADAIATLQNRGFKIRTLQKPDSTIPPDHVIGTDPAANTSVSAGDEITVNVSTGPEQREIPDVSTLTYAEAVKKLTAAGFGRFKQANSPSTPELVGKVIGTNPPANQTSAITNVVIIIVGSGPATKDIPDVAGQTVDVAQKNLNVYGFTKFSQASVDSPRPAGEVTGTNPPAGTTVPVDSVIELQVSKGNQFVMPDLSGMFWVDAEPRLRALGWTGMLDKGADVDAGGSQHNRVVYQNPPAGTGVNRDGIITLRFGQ
CC(=O)N1CCC(c2ccc(C(=O)NC3=NCCN3)cc2C(F)(F)F)CC1: 100%
C[C@H](c1cccc(C#N)c1)n1cc(Cl)cc(C(N)=O)c1=N: 89%
O=C1CCc2cc(Nc3cc(OC4CCOCC4)c([N+](=O)[O-])cc3Cl)ccc2N1: 94%

Block 3 — target: CCNA1, cyclin fold, Cln2 fusion (human); technique: yeast growth competition, sequencing; medium: yeast; notes: strong parent motif; relative to: not given; direction: higher = stronger binding; endpoint: normalised enrichment score; starting sequence: viral docking peptide; YKVKRRLVFGADD
YKVKRRLAFGADD [V8A]: 0.751
YTVKRRLVFGADD [K2T]: 1.39
YFVKRRLVFGADD [K2F]: 0.859
YKVKRRLVFGACD [D12C]: 1.1
YKRKRRLVFGADD [V3R]: 0.616

Other studies, line by line
O=C1NC(=O)c2c1c1c3ccccc3n3c1c1c2c2ccccc2n1[C@H]1CC[C@@H]3O1
remaining activity (Ephrin type-B receptor 3 (EPHB3, Homo sapiens, UniProt P54753); enzyme activity, inhibitor; 0.5 µM; relative to: control): 93.2%
